Experimental data of several laboratories.
Every numbered part comes from another study and shows a few of its results, in no order.

Study 1
Target: RNA binding protein fox-1 homolog 2, RRM domain, GST-SBP tag (RBFOX2, Homo sapiens, UniProt O43251-10, residues 100-194)
Method: RNA Bind-n-Seq
Form: RNA
Sample: in vitro
Tested at: 365 nM
Notes: natural RNA segment, single round, ends assumed
Relative to: no-protein control
Direction: higher = stronger binding
Construct (chain): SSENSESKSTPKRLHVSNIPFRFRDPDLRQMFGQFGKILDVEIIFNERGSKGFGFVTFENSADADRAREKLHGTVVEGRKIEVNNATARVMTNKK
| Oligonucleotide | RBNS enrichment (R) |
| --- | --- |
| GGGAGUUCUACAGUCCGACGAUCGCGUUGGCCUAACACUGGCUGUUUCGAUAGUGUGGGGGCUACAUGUGCCUGUAGGGGUCAGGCCUUGGCCCUGUGUGCGUGUGAGCCUGUGUGUGUAUGAGUGUGUGUGUUGGAAUUCUCGGGUGCCAA | 3.19 |
| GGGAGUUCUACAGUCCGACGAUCGGACCUUUGGAUAAGAAACCAGUGUUCUUAACUGCUGAGCCAUCUCUCCAGUUAGCUAACUGGAUUCUUAAGGAUGAUUCUAGCAAAUUAUAAGAAUAAAUAGUAAAAAGUGGAAUUCUCGGGUGCCAA | 0.349 |
| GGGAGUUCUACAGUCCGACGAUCUGGAACGAGUCUGAUUCAUGGUGUUAAUAGAGGCUUCUUGUUUUAGGAAGCUUUGCUUACACUCUGGAGCCUUUACACUCUGAAGGAGAACUUCAGGGUUAUUCCAAGUAUGGAAUUCUCGGGUGCCAA | 0.365 |
| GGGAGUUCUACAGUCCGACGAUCGGGGCACCAGUCUUGGCUUUUAGGAAGCUCUGUUUAACUUACACAUAAGUUCUUAAGAUGUGUUGGCAGUAUUGCGUCACCCACGGCCGUCCCGGGGGCUGAACGUGUGGUGGAAUUCUCGGGUGCCAA | 0.515 |
| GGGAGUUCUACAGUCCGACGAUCUGGACAGGAUUGAAAUCUCACAUGGGUGGAAAGGGAAUAAUAACCAUAAACCUUAAUCUGGAGAAGAAGUUUUGAUGCUGGAAGUGAGCAUCAGCUAUUGAGAUAGGCCUUGGAAUUCUCGGGUGCCAA | 0.41 |
| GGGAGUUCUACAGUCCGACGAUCAGCUGUGAAUGAAGAGGUUUCCUCUUUAAACCUGUCUGGUGGGCCCCCAGAUAUCCUCACCUCAGGGCCUCCUUUUUUUGCAAACUCCUCCCCUCCCCCGAGGGCAGACCUGGAAUUCUCGGGUGCCAA | 0.256 |
| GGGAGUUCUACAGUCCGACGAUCAAGAAUGCUGCUUUUUAUUCUCCUAACCCUUUCAAGUGGGUGCAGACUUCUCGUUAGCAGCUGGAAGACAUUCCUCCCACACUUUUCCCUUCCUGGCCCAAGAGAGCAUCUGGAAUUCUCGGGUGCCAA | 0.617 |
| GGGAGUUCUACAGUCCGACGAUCAUGGGUCUCCAUUCUGUGUGGCACCUUGAUUGGAAAAUAAUAUCCAUGCGUUUCUUCCACUGAGUCUUUCUUAGAUUAAAUCUCUCCCAGUUGUCCGUGAAGAGAAAGACUGGAAUUCUCGGGUGCCAA | 0.485 |
| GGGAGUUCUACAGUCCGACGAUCCUUUUGUACUAUGGAGUUGUUUACAGUAAGCAUGACUGAACAAGCACUAACAUCCUCCUACACCGGUCCAUCGUGUUCGGCUCUGAUCAGGAAUAGACAAGGCUUCUUUGUGGAAUUCUCGGGUGCCAA | 26.4 |

Study 2
Target: Histone acetyltransferase KAT6A, both winged helices, GST fusion (KAT6A, Homo sapiens, UniProt Q92794, residues 1-181)
Method: protein binding microarray
Form: double-stranded DNA, one strand shown
Sample: in vitro
Tested at: not given
Notes: 8-mer, flanks averaged, mean of 2 arrays, mostly near background
Relative to: not given
Direction: higher = stronger binding
Target sequence (chain): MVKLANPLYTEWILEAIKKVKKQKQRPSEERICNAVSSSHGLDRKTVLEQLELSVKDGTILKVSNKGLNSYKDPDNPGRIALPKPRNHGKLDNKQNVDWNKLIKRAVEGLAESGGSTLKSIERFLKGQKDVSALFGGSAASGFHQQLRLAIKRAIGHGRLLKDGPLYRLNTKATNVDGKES
| Oligonucleotide | E-score |
| --- | --- |
| GTTGCGTA | 0.111 |
| CCCTCCTA | -0.127 |
| CCTCGAGA | -0.184 |
| AGGACTTC | -0.112 |
| CATCTGAG | -0.0914 |
| AAGGCGTA | -0.136 |
| TCCCTAAA | -0.23 |
| AATAGACT | -0.263 |
| ATGTCACC | -0.0362 |
| AGAAGGCT | -0.214 |
| ACAGGTTC | -0.116 |
| GTGGTTGA | 0.00845 |
| CAATAATG | 0.0107 |
| AATGAGCT | -0.163 |
| AGTTTCTA | -0.0879 |
| GACGCGAA | 0.0976 |
| CACCTACG | 0.0379 |
| GGGCATAC | 0.00341 |
| ATTCTGGA | -0.0758 |
| ATCCGGAC | 0.0512 |
| CGGGACCA | 0.0824 |
| TGATCAAA | -0.0108 |
| CCCGTCCC | 0.14 |
| GCTAGCAA | 0.00072 |
| AATTGAAA | -0.106 |

Study 3
Target: RING finger protein unkempt homolog, zinc fingers 1-6, GST-SBP tag (UNK, Homo sapiens, UniProt Q9C0B0, residues 30-357)
Method: RNA Bind-n-Seq
Form: RNA
Sample: in vitro
Tested at: not given
Notes: RNA with constant flanks, human and mouse sites, ends assumed
Relative to: input RNA pool
Direction: higher = stronger binding
Target sequence (chain): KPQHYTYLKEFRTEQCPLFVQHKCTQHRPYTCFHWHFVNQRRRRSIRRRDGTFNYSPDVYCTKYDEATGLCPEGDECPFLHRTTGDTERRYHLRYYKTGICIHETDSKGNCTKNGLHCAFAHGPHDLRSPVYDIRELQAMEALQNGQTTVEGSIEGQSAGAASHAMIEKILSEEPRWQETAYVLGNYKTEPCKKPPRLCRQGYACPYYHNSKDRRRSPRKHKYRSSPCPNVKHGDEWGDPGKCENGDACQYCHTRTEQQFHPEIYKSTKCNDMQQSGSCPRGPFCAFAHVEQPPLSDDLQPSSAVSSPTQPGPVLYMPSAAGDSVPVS
| Oligonucleotide | bound/input enrichment |
| --- | --- |
| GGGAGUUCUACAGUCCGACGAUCUUAUUUUCAGUUUGUAAUUUUUUUUUUUAAUUUACGUGUAUGUACUCACUAAGAAAGUACAUUUUCUAGGGGCUAAGGAUAUGGCUCAGUGGUAGAGCACUUGCCUAACAUACACAAAGCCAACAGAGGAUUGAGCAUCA | 13.4 ratio |
| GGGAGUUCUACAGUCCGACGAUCCUUGCUUUCUGUAGGAGAAUUGAACAGCACUAUUUUGAAGAUCGUGGUAAAGGCAGGCUGUCAUAGAGUUAUGUGUUAGUCUCAGGAGUCUUAACUUUUGAAAUAUGUUUUACUUGAAUGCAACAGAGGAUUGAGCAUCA | 2.79 ratio |
| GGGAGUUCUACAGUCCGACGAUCAAACUCUCUAGCAAAACCACUGCUAAGUUAUCCACUAGUGCUAAAAGAAUUCAGAAGGAGCUAGCUGAAAUAACCCUUGAUCCUCCUCCUAAUUGCAGUGCUGGGCCUAAAGGAGAUAACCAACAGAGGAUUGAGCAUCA | 0.594 ratio |
| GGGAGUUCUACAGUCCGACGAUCUUCUCAGAUCGUAUUUGUUUUAAGGCCACACCUUUUUGAAGUUUUCAGUUUGAAACACAACCUGGACUGAAAUCAUGAGGGAGGUUGUGUAGGAAAGAAUCAUCAAGGGACUUAGUUGGGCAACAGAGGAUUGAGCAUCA | 0.197 ratio |
| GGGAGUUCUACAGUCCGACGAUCUCCCGUUUUGGGAAUGCUUUCCAUCUAUGUCGGGAAGUACUGCGUUUAACCAAGCUGGUUGUGGACAGCCAUGUGCAGUAUCGCUUGGGCAAUGUAGAUGCCUUCCAGCUGGCAGAUGGUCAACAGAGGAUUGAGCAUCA | 0.105 ratio |
| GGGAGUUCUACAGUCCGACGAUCCGUACAUUGGUAGGCAUGAAGUUGUUGGACAAGAUUCCCUCUGUCCCCCACGGGGAGCUGUCUUGCACCACAGAGCUCCUGAUCCUGGCCCACCACUGCUUUACCUUCACGUGCCACAUGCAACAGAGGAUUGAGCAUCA | 0.236 ratio |
| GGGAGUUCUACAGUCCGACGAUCUCCGCGCUUCUUAGAAGAGGAGUGAGAGGAAGGCGGGGGGCGCAGCAACGCAUCGUGUGGCCCUCCCCUCCCACCUCCCUGUGUAUAAAUAUUUACAUGUGAUGUCUGGUCUGAAUGCACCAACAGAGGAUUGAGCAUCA | 0.0879 ratio |
| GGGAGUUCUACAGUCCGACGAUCAGAUCCUUCACGUGCCCCUCCUGCAUGGAGCCAGUGGAUGCAGCACUGCUUUCAUCCUAUGAGACUAAUUGAGCCAGGGUCUCUCGUCUGACUUCAAGUGAACCAUCAGUUUUGGUGGUUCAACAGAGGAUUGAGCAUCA | 0.096 ratio |
| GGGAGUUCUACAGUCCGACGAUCUCAGCGCCACCGCUCGACUCUGAAGCGAAAUCUCAGCUAUCAAGGAGACUUUUAAAAGGCUCUCUAAAUAUUUGGUACGAGAAUUUCUUCUCUUUAUAUCUUUUGUGAUCCCUCUACACACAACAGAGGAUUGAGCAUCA | 0.341 ratio |
| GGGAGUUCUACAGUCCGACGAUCGUUGGAAUUGAUAUGGAGAUAUCUAAAAACUUUCAACGCAUCCUUCAAAAACAGGGGUUUAAAUUUAAAUUGAAUACAAAGGUUACUGGUGCUACCAAGAAGUCAGAUGGAAAAAUUGAUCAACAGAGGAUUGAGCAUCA | 0.766 ratio |
| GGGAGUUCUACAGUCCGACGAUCGAACAAGUAUGCCACAUCGAAGCAUGCUAAGAUCAGCACUCUACCACAGCUGAAUUCUGCACUAGUUCAAGAUUUAGCCAAGGCUGUGGCAAAGGUGUAACUUGUAAACUUGAGUUGGAGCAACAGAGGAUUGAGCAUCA | 0.42 ratio |

Study 4
Target: Interferon regulatory factor 5, full length, phosphomimetic (IRF5, Homo sapiens, UniProt Q13568-2, residues 1-514, S451D/S453D/S456D/S462D)
Method: protein-binding microarray
Form: double-stranded DNA, one strand shown
Sample: in vitro
Tested at: 940 nM top
Notes: 60-bp whole probe
Together with: salmon DNA 0.4 mg/ml
Relative to: random background probes
Direction: higher = stronger binding
Constant ends, left off below: GCCTAGCAC … GTCTTGATTCGCTTGACGCTGCTG
| Oligonucleotide | fitted relative affinity |
| --- | --- |
| GACGATAGCAGACTGGAGACGTGCTAG | -0.519 z-score |
| TTAGCACTGCTACTGCTTTAGTGCTAG | -0.283 z-score |
| TTAGATCTCAGACTGGTTTAGTGCTAG | -0.298 z-score |
| GCCGATTTCAGTTCCGAGACGTGCTAG | 1.22 z-score |
| GACGGTATCCGACTGGGGACGTGCTAG | -0.319 z-score |
| GATGGGCTACCTCTCTTAGAGTGCTAG | -0.354 z-score |
| TTTTTTTTTTTTTTTACTTCGTGCTAG | 1.22 z-score |
| TCAAGACTCATAATGGCACTGTGCTAG | -0.474 z-score |
| GACGATCCCAGACTGGAGACGTGCTAG | -0.674 z-score |
| GACGGTTTCCTACTGCGGACGTGCTAG | 0.778 z-score |
| TTAGGTATCGAATTTCGGTTAGTGCTA | 3.75 z-score |
| TTAGGTATCGCGTATCGGTTAGTGCTA | 2.96 z-score |
| GACGATATCGGGACTGGAGTCGTGCTA | 0.0664 z-score |
| GACGGTTTCGGACTGGAGACGTGCTAG | 5.66 z-score |
| TTAGGACTGCTTTTCCATTAGTGCTAG | -0.255 z-score |
| TTAGGACTGCTTTTCCTCTAGTGCTAG | -0.213 z-score |
| TTAGGTCTCCTACTGCTTCAGTGCTAG | -0.0737 z-score |
| TGTAGAGTAGCTTTCTGAGGGTGCTAG | -0.618 z-score |

A few entries again (study 4):
| Oligonucleotide | fitted relative affinity |
| --- | --- |
| GACGGTTTCCTACTGCGGACGTGCTAG | 0.778 z-score |
| TTAGGTATCGAATTTCGGTTAGTGCTA | 3.75 z-score |
| TTAGGTATCGCGTATCGGTTAGTGCTA | 2.96 z-score |
| GACGATATCGGGACTGGAGTCGTGCTA | 0.0664 z-score |
| GACGGTTTCGGACTGGAGACGTGCTAG | 5.66 z-score |
| TTAGGACTGCTTTTCCATTAGTGCTAG | -0.255 z-score |
| TTAGGACTGCTTTTCCTCTAGTGCTAG | -0.213 z-score |
| TTAGGTCTCCTACTGCTTCAGTGCTAG | -0.0737 z-score |
| TGTAGAGTAGCTTTCTGAGGGTGCTAG | -0.618 z-score |
